Results of several laboratories.
Protocols differ between the studies behind these lines.
Target: Phosphatidylinositol 4-phosphate 5-kinase type-1 gamma (PIP5K1C, Homo sapiens, UniProt O60331)

For `COc1cc(Nc2nccc(-c3cnn4nc(OC)ccc34)n2)cc(C(F)(F)F)c1`, the remaining binding was 100% (binding, competition with immobilised ligand; 1 µM).
Under “activity vs control”, `CNC(=O)C[C@H](Cc1ccc(C#N)cc1)NC(=O)c1cc(-c2ccc(CN[C@H](C)c3ccc(C)cc3)o2)ccc1Cl` is recorded as 99% (enzyme activity, inhibitor; 1 µM).
`CNC(=O)C1CCN(c2cc(C)c(F)cc2NC(=O)c2ccc(-c3cc(O)ccc3C)c(C)c2)CC1` gave a remaining binding of 95% (binding, competition with immobilised ligand; 1 µM).
The remaining binding of `COc1c(Cl)cccc1Nc1c(-c2ccncc2C#C[C@@]2(C)CCCN2C(=O)/C=C/CN(C)C)[nH]c2c1C(=O)NCC2` is reported as 100% (binding, competition with immobilised ligand; 3 µM).
For `O=C(Cc1ccc(OCc2ccccc2)cc1)NC1(C(=O)O)CCN(C(=O)c2ccc(-c3cccc(Cl)c3)cc2)CC1`, “activity vs control” read 103% (enzyme activity, inhibitor; 10 µM).
`Cc1cnc2nc1Nc1cccc(c1)COC/C=C/COCc1cc(ccc1OCCN1CCOCC1)N2`: “percent of control” 100% (concentration not given).
`Cc1nc2c(F)cc(-c3nc(Nc4ccc(CNC(=O)CCCCCCC(=O)NO)cc4)ncc3F)cc2n1C(C)C` gave an inhibition of 16% (enzyme activity, inhibitor; 1 µM).
For `CC(C)=CC1OC(C)(C)C2C=C3C(=O)C(Cl)=CC(O)C3C3C(O)C4OC4C(=O)C132` (centres unmarked), the remaining binding was 100% (cell-free assay, competition with immobilised ligand; 10 µM).
`CCN1CCN(Cc2ccc(C(=O)Nc3ccc(C)c(NCc4cnc5[nH]ccc5c4OC)c3)cc2C(F)(F)F)CC1` has a remaining binding of 0.9% (binding, competition with immobilised ligand; 1 µM).
`C=CC(=O)N1CCc2ccc(-n3c(=O)ccc4cnc5ccc(-c6cnn(C)c6)cc5c43)cc21` has a remaining binding of 63% (KINOMEscan; 1 µM; baseline: DMSO control).
The remaining binding of `Cc1ccc(-c2c(/C=C(\C#N)C(=O)NC(C)C)n(CCCO)c3ncnc(N)c23)cc1` is reported as 100% (cell-free assay, competition with immobilised ligand; 1 µM).
For `CNC1C[S+]2CC[S+]3CC[S+](C1)[Ru-4]321([N]=C=S)[n]2c3ccc(OC)cc3c3c4c(c5cc(F)c[n+]1c5c32)C(=O)NC4=O` (centres unmarked), the remaining binding was 97% (KinomeScan; 0.1 µM; baseline: untreated).
`Nc1ncc2c(n1)-c1c([nH]c3ccc(C4=CCOCC4)cc13)CCC2` gave a remaining binding of 0% (binding, competition with immobilised ligand; 1 µM).
`COc1cc(Nc2nc(C)cc(-c3cnn4nc(OC)ccc34)n2)cc(C(F)(F)F)c1` has a remaining activity of 94% (inhibitor; 1 µM; baseline: control).
For `C=CC(=O)N1Cc2nc(-c3cc(-c4cc(Cl)cnc4Cl)c(F)cc3F)n(-c3ccncn3)c2C1`, the inhibition was 5% (cell-free assay; 1 µM).
`CN1CC[C@@H](COc2cnc(C#N)cc2-c2ccn3nc(NC(=O)C4CC4)cc3c2)C1` has an inhibition of 20% (enzyme activity, inhibitor; 1 µM).
For `C=CC(=O)N1CCCC(n2c(=O)c3ncccc3n(Cc3ccc(Oc4ccccc4)cc3)c2=O)C1` (centres unmarked), the remaining binding was 74% (cell-free assay, competition with immobilised ligand; 1 µM).
